Experimental data from different studies.
A part holds a random share of what one study measured. Substitutions count along the parent as printed.
Chain of UniProt Q13043 (whole entry, looked up): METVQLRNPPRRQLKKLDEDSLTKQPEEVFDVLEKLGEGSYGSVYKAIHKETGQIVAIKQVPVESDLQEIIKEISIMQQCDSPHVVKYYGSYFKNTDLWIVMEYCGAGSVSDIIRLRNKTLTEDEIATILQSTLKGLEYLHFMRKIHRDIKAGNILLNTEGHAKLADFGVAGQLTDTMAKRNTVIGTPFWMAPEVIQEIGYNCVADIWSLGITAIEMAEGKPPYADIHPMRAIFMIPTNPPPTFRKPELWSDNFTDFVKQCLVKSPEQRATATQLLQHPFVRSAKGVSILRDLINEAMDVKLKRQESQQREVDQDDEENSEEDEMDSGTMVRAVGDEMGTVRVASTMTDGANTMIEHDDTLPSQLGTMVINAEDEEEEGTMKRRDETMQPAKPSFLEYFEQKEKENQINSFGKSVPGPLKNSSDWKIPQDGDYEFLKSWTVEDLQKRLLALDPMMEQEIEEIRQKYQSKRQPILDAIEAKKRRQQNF
Chain of UniProt Q8NG66 (whole entry, looked up): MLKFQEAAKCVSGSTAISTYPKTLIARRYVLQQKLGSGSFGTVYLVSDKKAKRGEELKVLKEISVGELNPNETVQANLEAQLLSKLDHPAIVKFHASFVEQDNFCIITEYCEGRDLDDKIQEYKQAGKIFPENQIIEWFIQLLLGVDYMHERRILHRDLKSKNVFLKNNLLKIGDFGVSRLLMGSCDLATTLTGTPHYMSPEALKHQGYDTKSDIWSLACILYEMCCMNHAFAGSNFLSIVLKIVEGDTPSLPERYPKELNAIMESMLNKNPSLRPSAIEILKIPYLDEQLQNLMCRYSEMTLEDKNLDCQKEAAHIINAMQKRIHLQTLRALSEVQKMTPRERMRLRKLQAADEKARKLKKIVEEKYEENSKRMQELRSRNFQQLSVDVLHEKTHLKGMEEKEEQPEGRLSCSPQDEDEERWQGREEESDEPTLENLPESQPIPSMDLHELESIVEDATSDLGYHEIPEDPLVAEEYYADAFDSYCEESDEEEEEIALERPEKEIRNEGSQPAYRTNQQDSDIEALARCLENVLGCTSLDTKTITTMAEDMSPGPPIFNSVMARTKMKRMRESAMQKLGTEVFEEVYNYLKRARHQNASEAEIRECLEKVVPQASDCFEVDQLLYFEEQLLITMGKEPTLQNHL
Chain of UniProt P54756 (whole entry, looked up): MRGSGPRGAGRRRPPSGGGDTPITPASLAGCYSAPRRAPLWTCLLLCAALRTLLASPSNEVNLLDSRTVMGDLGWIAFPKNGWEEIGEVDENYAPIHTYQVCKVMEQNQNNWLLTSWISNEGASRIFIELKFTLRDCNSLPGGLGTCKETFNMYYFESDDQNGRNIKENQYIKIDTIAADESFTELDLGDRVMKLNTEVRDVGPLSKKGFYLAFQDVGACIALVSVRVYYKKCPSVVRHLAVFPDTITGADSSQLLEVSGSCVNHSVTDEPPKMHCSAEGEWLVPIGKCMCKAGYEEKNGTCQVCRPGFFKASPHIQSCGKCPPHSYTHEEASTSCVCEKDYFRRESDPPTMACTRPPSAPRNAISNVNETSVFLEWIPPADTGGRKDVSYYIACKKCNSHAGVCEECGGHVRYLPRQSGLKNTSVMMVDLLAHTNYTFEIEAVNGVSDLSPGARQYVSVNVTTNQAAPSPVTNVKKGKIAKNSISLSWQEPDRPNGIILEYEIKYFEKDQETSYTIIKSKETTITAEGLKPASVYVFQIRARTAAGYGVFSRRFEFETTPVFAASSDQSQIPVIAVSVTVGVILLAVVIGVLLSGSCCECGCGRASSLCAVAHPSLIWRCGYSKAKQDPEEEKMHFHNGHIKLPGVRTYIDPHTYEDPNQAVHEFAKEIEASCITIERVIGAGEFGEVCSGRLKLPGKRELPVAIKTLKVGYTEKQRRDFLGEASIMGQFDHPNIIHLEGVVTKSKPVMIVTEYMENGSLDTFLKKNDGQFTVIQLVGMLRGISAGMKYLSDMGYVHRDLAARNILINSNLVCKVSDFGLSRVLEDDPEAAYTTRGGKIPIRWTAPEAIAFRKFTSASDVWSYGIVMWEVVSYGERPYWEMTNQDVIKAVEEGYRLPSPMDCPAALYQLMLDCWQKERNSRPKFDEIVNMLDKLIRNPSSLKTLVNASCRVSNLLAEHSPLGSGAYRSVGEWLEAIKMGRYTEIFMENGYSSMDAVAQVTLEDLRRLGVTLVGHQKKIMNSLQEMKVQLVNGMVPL
Chain of UniProt P49759 (whole entry, looked up): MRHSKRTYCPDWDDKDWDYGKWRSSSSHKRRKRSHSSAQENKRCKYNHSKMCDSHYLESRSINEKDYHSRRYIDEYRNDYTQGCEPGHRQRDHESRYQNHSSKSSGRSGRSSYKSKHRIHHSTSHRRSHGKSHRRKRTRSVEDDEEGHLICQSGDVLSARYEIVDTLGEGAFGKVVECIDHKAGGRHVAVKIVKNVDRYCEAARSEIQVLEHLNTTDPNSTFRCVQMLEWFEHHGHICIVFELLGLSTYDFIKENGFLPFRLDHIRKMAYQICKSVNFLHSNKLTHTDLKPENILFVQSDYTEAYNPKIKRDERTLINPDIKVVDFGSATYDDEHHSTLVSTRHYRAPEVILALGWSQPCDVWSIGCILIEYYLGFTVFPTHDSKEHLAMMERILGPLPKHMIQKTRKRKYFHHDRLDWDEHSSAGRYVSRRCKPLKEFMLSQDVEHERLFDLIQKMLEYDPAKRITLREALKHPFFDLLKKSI
Chain of UniProt Q6ZWH5 (whole entry, looked up): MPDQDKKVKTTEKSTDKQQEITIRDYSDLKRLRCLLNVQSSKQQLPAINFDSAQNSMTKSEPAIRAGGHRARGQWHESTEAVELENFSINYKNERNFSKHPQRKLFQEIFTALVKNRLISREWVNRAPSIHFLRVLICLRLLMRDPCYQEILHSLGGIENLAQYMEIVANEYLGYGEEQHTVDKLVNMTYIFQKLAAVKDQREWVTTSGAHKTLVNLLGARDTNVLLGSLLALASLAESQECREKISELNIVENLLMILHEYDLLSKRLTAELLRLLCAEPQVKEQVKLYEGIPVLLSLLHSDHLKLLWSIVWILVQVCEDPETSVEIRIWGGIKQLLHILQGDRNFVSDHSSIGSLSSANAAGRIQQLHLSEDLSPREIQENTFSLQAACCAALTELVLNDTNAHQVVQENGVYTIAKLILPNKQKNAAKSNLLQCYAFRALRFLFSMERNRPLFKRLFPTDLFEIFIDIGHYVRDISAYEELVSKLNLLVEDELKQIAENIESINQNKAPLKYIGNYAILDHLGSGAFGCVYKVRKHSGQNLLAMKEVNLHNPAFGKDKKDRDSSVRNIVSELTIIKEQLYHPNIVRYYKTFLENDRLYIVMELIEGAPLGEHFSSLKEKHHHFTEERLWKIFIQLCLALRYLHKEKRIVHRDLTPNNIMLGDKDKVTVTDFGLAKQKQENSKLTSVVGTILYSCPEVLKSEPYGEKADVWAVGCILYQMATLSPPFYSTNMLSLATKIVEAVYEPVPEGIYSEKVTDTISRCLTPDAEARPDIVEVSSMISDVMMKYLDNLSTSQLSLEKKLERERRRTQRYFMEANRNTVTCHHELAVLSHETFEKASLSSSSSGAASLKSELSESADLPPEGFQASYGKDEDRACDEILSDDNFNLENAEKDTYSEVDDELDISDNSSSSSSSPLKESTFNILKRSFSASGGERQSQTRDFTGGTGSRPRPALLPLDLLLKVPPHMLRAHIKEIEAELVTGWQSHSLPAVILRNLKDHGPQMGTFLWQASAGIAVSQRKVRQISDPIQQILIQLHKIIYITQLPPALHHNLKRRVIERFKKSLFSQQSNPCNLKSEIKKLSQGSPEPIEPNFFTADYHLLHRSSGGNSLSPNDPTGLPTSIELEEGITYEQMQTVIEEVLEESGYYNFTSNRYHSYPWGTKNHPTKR
Chain of UniProt Q16620 (whole entry, looked up): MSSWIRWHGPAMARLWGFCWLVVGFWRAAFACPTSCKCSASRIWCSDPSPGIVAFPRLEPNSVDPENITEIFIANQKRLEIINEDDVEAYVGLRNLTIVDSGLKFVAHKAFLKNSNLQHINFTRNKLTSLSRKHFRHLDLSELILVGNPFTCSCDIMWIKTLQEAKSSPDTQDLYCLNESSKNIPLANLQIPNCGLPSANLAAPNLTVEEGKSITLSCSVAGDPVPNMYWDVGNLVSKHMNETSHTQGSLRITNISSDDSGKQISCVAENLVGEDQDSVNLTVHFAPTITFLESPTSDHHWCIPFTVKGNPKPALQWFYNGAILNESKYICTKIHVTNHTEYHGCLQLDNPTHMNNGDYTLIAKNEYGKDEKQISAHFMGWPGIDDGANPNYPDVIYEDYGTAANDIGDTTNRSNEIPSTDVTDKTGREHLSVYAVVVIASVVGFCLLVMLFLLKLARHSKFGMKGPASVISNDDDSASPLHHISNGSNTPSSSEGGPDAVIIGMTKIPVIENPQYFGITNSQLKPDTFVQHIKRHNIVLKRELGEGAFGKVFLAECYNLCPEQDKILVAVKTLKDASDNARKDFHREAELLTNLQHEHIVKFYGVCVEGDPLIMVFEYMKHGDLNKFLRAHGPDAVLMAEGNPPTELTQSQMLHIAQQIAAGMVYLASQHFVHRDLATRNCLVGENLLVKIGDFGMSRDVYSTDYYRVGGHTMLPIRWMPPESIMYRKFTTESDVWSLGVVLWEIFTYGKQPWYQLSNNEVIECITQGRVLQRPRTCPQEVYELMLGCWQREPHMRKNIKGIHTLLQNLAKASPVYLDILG
Chain of UniProt O14733 (whole entry, looked up): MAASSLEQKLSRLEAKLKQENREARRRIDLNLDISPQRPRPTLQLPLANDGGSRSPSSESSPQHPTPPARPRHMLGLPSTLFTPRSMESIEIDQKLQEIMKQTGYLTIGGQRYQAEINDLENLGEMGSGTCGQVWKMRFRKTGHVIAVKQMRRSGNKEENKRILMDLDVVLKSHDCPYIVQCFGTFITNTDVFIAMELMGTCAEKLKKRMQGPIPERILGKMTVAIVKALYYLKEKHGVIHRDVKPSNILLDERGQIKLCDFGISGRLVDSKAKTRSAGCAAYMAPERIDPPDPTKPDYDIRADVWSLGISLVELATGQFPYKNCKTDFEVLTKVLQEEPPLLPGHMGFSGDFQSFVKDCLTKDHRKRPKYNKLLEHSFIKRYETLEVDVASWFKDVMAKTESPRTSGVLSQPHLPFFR

Study 1 — target: CCNB3, cyclin fold, Cln2 fusion (human); method: yeast growth competition, sequencing; medium: yeast; notes: weak parent motif; baseline: not given; direction: higher = stronger binding
Starting sequence: SLBP docking peptide (human); ARYKRKLLINDFG
| Change | normalised enrichment score |
| --- | --- |
| AGYKRKLLINDFG [R2G] | 0.343 |
| ARYKRKLNINDFG [L8N] | 0.27 |
| AKYKRKLLINDFG [R2K] | 0.414 |
| ADYKRKLLINDFG [R2D] | 0.423 |
| MRYKRKLLINDFG [A1M] | 0.57 |
| ARYKRKLLIIDFG [N10I] | 0.105 |
| ARYKRKLLINDFS [G13S] | -0.346 |
| ARYKRKDLINDFG [L7D] | 0.179 |

Study 2 — observed: enzyme activity; mode: inhibitor; concentration: 0.5 µM; baseline: control
Target: cAMP-dependent protein kinase catalytic subunit alpha (PRKACA, Homo sapiens, UniProt P17612)
| SMILES | remaining activity [%] |
| --- | --- |
| COc1ccc(CNC(=O)Nc2ncc([N+](=O)[O-])s2)cc1 | 96.9 |
| Cc1ccc(NC(=O)c2ccc(CN3CCN(C)CC3)cc2)cc1Nc1nc(-c2cccnc2)cs1 | 104 |
| Cc1ccc(Nc2nccc(N(C)c3ccc4c(C)n(C)nc4c3)n2)cc1S(N)(=O)=O | 94.5 |
| CO[C@H]1C[C@@H]2CC[C@@H](C)[C@@](O)(O2)C(=O)C(=O)N2CCCC[C@H]2C(=O)O[C@H]([C@H](C)C[C@@H]2CC[C@@H](O)[C@H](OC)C2)CC(=O)[C@H](C)/C=C(\C)[C@@H](O)[C@@H](OC)C(=O)[C@H](C)C[C@H](C)/C=C/C=C/C=C/1C | 99.8 |
| O=C1NC(=O)C(c2cn(CCCO)c3ncccc23)=C1c1cnccn1 | 87.7 |
| O=C(Nc1cccc(Nc2cc(Nc3cccc(C(F)(F)F)c3)ncn2)c1)C1CC1 | 102 |
| CN(C)c1ccc(C=C2C(=O)Nc3ccccc32)cc1 | 104 |

Study 3 — observed: cell-free assay; method: competition with immobilised ligand; concentration: 1 µM
Structure (SMILES): NS(=O)(=O)c1cc(NC(=O)Cc2ccccc2)ccc1Oc1cccc(Cl)c1
| target | remaining binding [%] |
| --- | --- |
| Dual specificity mitogen-activated protein kinase kinase 7 (MAP2K7, Homo sapiens, UniProt O14733) | 91 |
| Serine/threonine-protein kinase 4 (STK4, Homo sapiens, UniProt Q13043) | 86 |
| Serine/threonine-protein kinase Nek10 (NEK10, Homo sapiens, UniProt Q6ZWH5) | 89 |
| Mitogen-activated protein kinase kinase kinase 11 (MAP3K11, Homo sapiens, UniProt Q16584) | 78 |
| Dual specificity protein kinase CLK1 (CLK1, Homo sapiens, UniProt P49759) | 67 |
| Myosin light chain kinase, smooth muscle (MYLK, Homo sapiens, UniProt Q15746) | 73 |
| Epidermal growth factor receptor (EGFR, Homo sapiens, UniProt P00533, L861Q) | 64 |
| Ephrin type-A receptor 5 (EPHA5, Homo sapiens, UniProt P54756) | 62 |
| Serine/threonine-protein kinase 38 (STK38, Homo sapiens, UniProt Q15208) | 90 |
| Cyclin-dependent kinase-like 1 (CDKL1, Homo sapiens, UniProt Q00532) | 98 |
| BDNF/NT-3 growth factors receptor (NTRK2, Homo sapiens, UniProt Q16620) | 66 |
| RAC-alpha serine/threonine-protein kinase (AKT1, Homo sapiens, UniProt P31749) | 100 |
| Mitogen-activated protein kinase kinase kinase 14 (MAP3K14, Homo sapiens, UniProt Q99558) | 67 |
| Ribosomal protein S6 kinase alpha-2, C-terminal kinase domain (RPS6KA2, Homo sapiens, UniProt Q15349) | 89 |
| Serine/threonine-protein kinase Nek11 (NEK11, Homo sapiens, UniProt Q8NG66) | 100 |
| Tyrosine-protein kinase ABL1, phosphorylated (ABL1, Homo sapiens, UniProt P00519, Q252H) | 55 |
| Serine/threonine-protein kinase PAK 2 (PAK2, Homo sapiens, UniProt Q13177) | 91 |
| Serine/threonine-protein kinase PLK2 (PLK2, Homo sapiens, UniProt Q9NYY3) | 73 |
| Dual specificity mitogen-activated protein kinase kinase 2 (MAP2K2, Homo sapiens, UniProt P36507) | 100 |
| Dual specificity tyrosine-phosphorylation-regulated kinase 1A (DYRK1A, Homo sapiens, UniProt Q13627) | 95 |
| Serine/threonine-protein kinase Sgk3 (SGK3, Homo sapiens, UniProt Q96BR1) | 83 |
| SRSF protein kinase 2 (SRPK2, Homo sapiens, UniProt P78362) | 88 |
| Uncharacterized serine/threonine-protein kinase SBK3 (SBK3, Homo sapiens, UniProt P0C264) | 100 |

Study 4 — cell line: Huh-7; concentration: 10 µM; time: 24 h
| SMILES | viability [%] |
| --- | --- |
| COC1=CC(=O)C[C@@H](C)[C@]12Oc1c(Cl)c(OC)cc(OC)c1C2=O | 93.3 |
| CCCOc1ccc2nc(NC(=O)OC)[nH]c2c1 | 62.1 |
| CCC(=O)OCC(=O)[C@@]1(OC(=O)CC)[C@H](C)C[C@H]2[C@H]3[C@H]([C@@H](O)C[C@@]21C)[C@@]1(C)C=CC(=O)C=C1C[C@H]3Cl | 98.8 |
| O=C(c1ccc(F)cc1)C1CCN(CCn2c(=O)[nH]c3ccccc3c2=O)CC1 | 71.6 |

Study 5 — observed: AlphaScreen signal; method: AlphaScreen counter screen; medium: His6 peptide without bromodomain; concentration: 50 µM; notes: assay interference check
| SMILES | inhibition [%] |
| --- | --- |
| CS(=O)(=O)N1CCN(Cc2cc3nc(-c4cccc5[nH]ncc45)nc(N4CCOCC4)c3s2)CC1 | 30.1 |
| COc1ccc(CCNc2nc(N)nc3[nH]cnc23)cc1OC | 48.7 |
| Cc1cc2nc(C(C#N)=Cc3ccncc3)[nH]c2cc1C | 25.4 |
| Cc1[nH]c(/C=C2\C(=O)Nc3ccccc32)c(C)c1CCC(=O)O | 20 |
| CCS(=O)(=O)c1cccc(-c2cc(C(=O)NC3CCN(C)CC3)c(C)c3[nH]c4ncc(C)cc4c23)c1 | 19.1 |
| CC(C)n1cnc2c(Nc3cccc(Cl)c3)nc(NCCO)nc21 | 33.8 |

Study 6 — method: Phase 2a trial; host: idiopathic pulmonary fibrosis patients
SMILES: CC(C)n1cnc(-c2ccc(F)cc2)c1-c1ncc(C(=O)Nc2ccc(N3CCN(C)CC3)cc2)[nH]1
| measured | route | dose | notes | patients with adverse events [%] |
| --- | --- | --- | --- | --- |
| bile acids increased | – | 60 mg once daily | grade 1 maximum intensity | 0 |
| oral herpes | oral | 30 mg once daily | grade 4 maximum intensity | 0 |
| muscular weakness | – | 60 mg once daily | grade 5 maximum intensity | 0 |
| blood bilirubin increased | – | 60 mg once daily | grade 2 maximum intensity | 0 |
| blood alkaline phosphatase increased | – | 60 mg once daily | grade 4 maximum intensity | 0 |

For quick reference, copied from above (study 4):
| SMILES | viability [%] |
| --- | --- |
| COC1=CC(=O)C[C@@H](C)[C@]12Oc1c(Cl)c(OC)cc(OC)c1C2=O | 93.3 |
| CCCOc1ccc2nc(NC(=O)OC)[nH]c2c1 | 62.1 |
| CCC(=O)OCC(=O)[C@@]1(OC(=O)CC)[C@H](C)C[C@H]2[C@H]3[C@H]([C@@H](O)C[C@@]21C)[C@@]1(C)C=CC(=O)C=C1C[C@H]3Cl | 98.8 |
| O=C(c1ccc(F)cc1)C1CCN(CCn2c(=O)[nH]c3ccccc3c2=O)CC1 | 71.6 |
